{"data": "Measurements pooled from the literature", "note": "Lines come from different studies, so protocols differ. ± gives the spread as reported."}
{"Structure (SMILES)": "Fc1ccc(N2CCNCC2COc2ccc3c(c2)OCO3)cc1 (stereo not drawn)", "test": "experimental partition", "setting": "pH 7.4", "logD": "2.1 ± 0.04"}
{"Structure (SMILES)": "O=C1NC(=O)C(Cc2ccccc2)S1 (stereo not drawn)", "setting": "pH 7.4, second measurement", "logD": 1.04}
{"Structure (SMILES)": "Cn1c(=O)cnc2ccc(F)c(CCNC[C@H]3CN(c4cnc5c(n4)NC(=O)CO5)C(=O)O3)c21", "test": "eLogD", "logD": 1.12}
{"Structure (SMILES)": "COc1ccc2c3c1O[C@H]1C(=O)C=C[C@@]4(O)[C@@H](C2)N(C)CC[C@]314", "test system": "octanol/buffer", "setting": "1 h, pH 7.4", "logD": -0.06}
{"Structure (SMILES)": "CC(c1ccccc1)n1cc(-c2cccc3cn[nH]c23)c(=O)[nH]c1=O (stereo not drawn)", "test system": "octanol/water", "setting": "pH 7.4", "logD": 2.37}
{"Structure (SMILES)": "O=C(O)CNC(=O)C1C(=O)N(C2CCCCC2)C(=O)N(C2CCCCC2)C1=O", "test": "miniaturised shake-flask", "test system": "1-octanol/water", "logD": 1}
{"Structure (SMILES)": "NCCCC1CN(c2ccc3c(n2)NC(=O)CO3)C(=O)O1 (stereo not drawn)", "test": "eLogD", "logD": -1.1}
{"Structure (SMILES)": "CCOC(=O)[C@](CC)(CCC[S+]([O-])CCOCCOCCNC(=O)OC(C)(C)C)NC(=O)c1ccc(C2CC2)c(Cc2ccc(F)cc2)n1 (stereo partly drawn)", "logD": 3.2}
{"Structure (SMILES)": "COc1ccc2c3c1O[C@H]1C(=O)C=C[C@H]4[C@@H](C2)N(C)CC[C@]314", "test system": "octanol/buffer", "setting": "1 h, pH 7.4", "logD": 0.82}
{"Structure (SMILES)": "CCOC(=O)C(CC)(CCCSCCOCCOCCNc1ccc([N+](=O)[O-])c2nonc12)NC(=O)c1ccc(C2CC2)c(Cc2ccc(F)cc2)n1 (racemic)", "logD": 2.8}
{"Structure (SMILES)": "CC(C)C[C@@H](NC(=O)[C@H](C)NC(=O)CNC(=O)[C@@H](NC=O)C(C)C)C(=O)N[C@@H](C)C(=O)N[C@@H](C(=O)N[C@H](C(=O)N[C@@H](C(=O)N[C@@H](Cc1c[nH]c2ccccc12)C(=O)N[C@H](CC(C)C)C(=O)N[C@@H](Cc1ccc2[nH]ccc2c1)C(=O)N[C@H](CC(C)C)C(=O)N[C@@H](Cc1c[nH]c2ccccc12)C(=O)N[C@H](CC(C)C)C(=O)N[C@@H](Cc1c[nH]c2ccccc12)C(=O)NCCO)C(C)C)C(C)C)C(C)C", "test": "UHPLC retention on C18", "logD": 5.05}
{"Structure (SMILES)": "CN1CC[C@]23c4c5ccc(O)c4O[C@H]2[C@@H](O)CC[C@@]3(O)[C@H]1C5", "test system": "octanol/buffer", "setting": "1 h, pH 7.4", "logD": -1.05}
{"Structure (SMILES)": "CC(c1ccc(F)cc1)n1cc(-c2cc(F)cc(F)c2)c(=O)[nH]c1=O (stereo not drawn)", "test system": "octanol/water", "setting": "pH 7.4", "logD": 3.27}
{"Structure (SMILES)": "Cc1nc([C@@](C)(CC2CC2)NC(=O)c2cc(OCC(F)(F)F)c(C3CC3)cn2)no1", "setting": "pH 7.4", "logD": "3.94 ± 0.07"}
{"Structure (SMILES)": "c1ccc(CCc2nnn[nH]2)cc1", "setting": "pH 7.4, first measurement", "logD": -0.36}
{"Structure (SMILES)": "COc1ccc2c3c1O[C@H]1[C@@H](O)CC[C@@]4(O)[C@@H](C2)N(C)CC[C@]314", "test system": "octanol/buffer", "setting": "1 h, pH 7.4", "logD": -0.95}
{"Structure (SMILES)": "CC(C)C[C@@H](NC(=O)[C@H](C)NC(=O)CNC(=O)[C@@H](NC=O)C(C)C)C(=O)N[C@@H](C)C(=O)N[C@@H](C(=O)N[C@H](C(=O)N[C@@H](C(=O)N[C@@H](Cc1c[nH]c2ccccc12)C(=O)N[C@H](CC(C)C)C(=O)N[C@@H](Cc1cccc2cc[nH]c12)C(=O)N[C@H](CC(C)C)C(=O)N[C@@H](Cc1c[nH]c2ccccc12)C(=O)N[C@H](CC(C)C)C(=O)N[C@@H](Cc1c[nH]c2ccccc12)C(=O)NCCO)C(C)C)C(C)C)C(C)C", "test": "UHPLC retention on C18", "logD": 6.49}
{"Structure (SMILES)": "Cn1c(=O)ccc2ccc(F)c(CCNC[C@H]3CN(c4ccc5c(n4)NC(=O)CO5)C(=O)O3)c21", "test": "eLogD", "logD": 1.7}
{"Structure (SMILES)": "O=C(O)CCc1ccccc1", "setting": "pH 7.4, second measurement", "logD": -0.51}
{"Structure (SMILES)": "CC(C)C[C@@H](NC(=O)[C@H](C)NC(=O)CNC(=O)[C@@H](NC=O)C(C)C)C(=O)N[C@@H](C)C(=O)N[C@@H](C(=O)N[C@H](C(=O)N[C@@H](C(=O)N[C@@H](Cc1c[nH]c2ccccc12)C(=O)N[C@H](CC(C)C)C(=O)N[C@@H](Cc1ccc2cc[nH]c2c1)C(=O)N[C@H](CC(C)C)C(=O)N[C@@H](Cc1c[nH]c2ccccc12)C(=O)N[C@H](CC(C)C)C(=O)N[C@@H](Cc1c[nH]c2ccccc12)C(=O)NCCO)C(C)C)C(C)C)C(C)C", "test": "UHPLC retention on C18", "logD": 5.57}
{"Structure (SMILES)": "CC(c1ccccn1)n1cc(-c2cc(F)cc3c(C#N)n[nH]c23)c(=O)[nH]c1=O (stereo not drawn)", "test system": "octanol/water", "setting": "pH 7.4", "logD": 2.13}
{"Structure (SMILES)": "NCCOCC(=O)N1CCCC(C(=O)NCc2nc(-c3ccc(-c4ccc(F)cc4)cc3)cs2)C1 (stereo not drawn)", "test": "shake flask", "test system": "octanol/buffer", "setting": "pH 7.4", "logD": 1.4}
{"Structure (SMILES)": "CS(=O)(=O)NC(=O)NCc1ccccc1", "setting": "pH 7.4, third measurement", "logD": -1.2}
{"Structure (SMILES)": "CC1(C)NC(=O)N(c2cccc(S(F)(F)(F)(F)F)c2)C1=O", "test": "chromatographic HPLC", "setting": "pH 7.4", "logD": 3}
{"note": "Some of these lines once more:"}
{"Structure (SMILES)": "O=C(O)CNC(=O)C1C(=O)N(C2CCCCC2)C(=O)N(C2CCCCC2)C1=O", "test": "miniaturised shake-flask", "test system": "1-octanol/water", "logD": 1}
{"Structure (SMILES)": "Cc1nc([C@@](C)(CC2CC2)NC(=O)c2cc(OCC(F)(F)F)c(C3CC3)cn2)no1", "setting": "pH 7.4", "logD": "3.94 ± 0.07"}
